Measurements pooled from the literature.
A part holds a random share of what one study measured. Changes are numbered by the printed parent chain.

Set 1 — technique: universal PBM; molecule type: double-stranded DNA, one strand shown; sample: in vitro; concentration: 600 nM; reading: higher = stronger binding
Target: Sal-like protein 4, full length isoform A (SALL4, Homo sapiens, UniProt Q9UJQ4, residues 1-1053)
Chain of UniProt Q9UJQ4 (whole entry, looked up): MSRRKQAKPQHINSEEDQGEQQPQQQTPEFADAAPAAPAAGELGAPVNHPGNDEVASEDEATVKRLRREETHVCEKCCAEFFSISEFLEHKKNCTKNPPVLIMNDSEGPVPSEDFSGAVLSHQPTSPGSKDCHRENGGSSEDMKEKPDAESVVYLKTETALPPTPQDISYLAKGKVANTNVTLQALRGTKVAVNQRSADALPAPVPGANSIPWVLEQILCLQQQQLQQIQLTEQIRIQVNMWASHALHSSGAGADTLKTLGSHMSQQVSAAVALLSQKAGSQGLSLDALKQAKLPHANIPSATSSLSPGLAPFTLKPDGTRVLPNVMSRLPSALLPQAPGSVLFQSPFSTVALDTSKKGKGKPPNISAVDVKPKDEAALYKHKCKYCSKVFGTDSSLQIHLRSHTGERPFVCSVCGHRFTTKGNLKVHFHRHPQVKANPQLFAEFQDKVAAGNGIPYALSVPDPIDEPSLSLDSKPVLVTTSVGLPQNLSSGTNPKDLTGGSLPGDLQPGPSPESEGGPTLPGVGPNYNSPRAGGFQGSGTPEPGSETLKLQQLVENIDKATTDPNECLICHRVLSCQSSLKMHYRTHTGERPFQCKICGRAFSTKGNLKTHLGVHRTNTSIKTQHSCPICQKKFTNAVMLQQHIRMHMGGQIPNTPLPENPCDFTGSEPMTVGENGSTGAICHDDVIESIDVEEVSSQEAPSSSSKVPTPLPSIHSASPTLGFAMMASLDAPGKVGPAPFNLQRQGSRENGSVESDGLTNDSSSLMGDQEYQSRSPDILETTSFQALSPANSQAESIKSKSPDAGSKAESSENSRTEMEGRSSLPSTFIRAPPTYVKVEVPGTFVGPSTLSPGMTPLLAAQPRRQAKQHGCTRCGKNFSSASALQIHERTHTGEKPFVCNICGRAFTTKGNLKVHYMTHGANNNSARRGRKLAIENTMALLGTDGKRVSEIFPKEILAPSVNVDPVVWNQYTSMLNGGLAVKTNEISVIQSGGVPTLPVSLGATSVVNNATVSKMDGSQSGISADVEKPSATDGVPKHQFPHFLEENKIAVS
Setting: 8-mer, flanks averaged, mean of replicates
`CATCAGGC` gave an E-score of -0.17.
`ATAATGGA` gave an E-score of 0.246.
`CGTTTCTA` gave an E-score of 0.0918.
`CTCTTGCA` gave an E-score of -0.16.
`AGTTCCTC` has an E-score of -0.129.

Set 2 — technique: protein binding microarray; molecule type: double-stranded DNA, one strand shown; sample: in vitro; concentration: not given; reference: not given; reading: higher = stronger binding
Target: Histone acetyltransferase KAT6A, both winged helices, GST fusion (KAT6A, Homo sapiens, UniProt Q92794, residues 1-181)
Setting: 8-mer, flanks averaged, mean of 2 arrays, mostly near background
Residues (chain): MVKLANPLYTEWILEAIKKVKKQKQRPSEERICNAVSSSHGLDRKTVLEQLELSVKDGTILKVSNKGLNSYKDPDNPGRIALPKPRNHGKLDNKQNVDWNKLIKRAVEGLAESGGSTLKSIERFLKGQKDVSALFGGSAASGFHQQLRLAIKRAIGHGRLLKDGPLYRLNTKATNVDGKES
For `AGGGGACA`, the E-score was -0.101.
The E-score of `GACTAGAC` is reported as -0.0917.
With `ACTAATCA` the E-score was -0.00944.
For `AAGTTGGC`, the E-score was -0.103.

Single results of other studies — CCNA2: CCNA2, cyclin fold, Cln2 fusion (human)
P1: CDC6 docking peptide (human); TLKGRRLVFDNQL
P2: ORC1 docking peptide (human); PRARKRLELGNLG; partner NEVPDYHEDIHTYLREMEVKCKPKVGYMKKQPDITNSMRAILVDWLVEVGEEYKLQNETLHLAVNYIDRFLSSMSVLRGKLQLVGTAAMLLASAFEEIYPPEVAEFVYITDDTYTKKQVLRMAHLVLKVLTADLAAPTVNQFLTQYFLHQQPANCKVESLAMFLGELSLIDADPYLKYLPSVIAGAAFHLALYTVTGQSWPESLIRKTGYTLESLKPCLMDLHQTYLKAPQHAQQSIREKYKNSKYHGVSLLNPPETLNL
P3: CDKN1B docking peptide (human); PSACRNLFGPVDH; partner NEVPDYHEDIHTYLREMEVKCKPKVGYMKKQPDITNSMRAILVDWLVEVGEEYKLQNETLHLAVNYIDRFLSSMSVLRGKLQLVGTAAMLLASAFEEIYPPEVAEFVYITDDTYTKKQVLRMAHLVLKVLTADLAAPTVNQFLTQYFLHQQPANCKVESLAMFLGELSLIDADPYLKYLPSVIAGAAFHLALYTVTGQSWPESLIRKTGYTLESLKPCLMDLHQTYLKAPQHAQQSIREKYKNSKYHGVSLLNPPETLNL
P4: PKN2 docking peptide (human); VSAVRKLDFSDTM; partner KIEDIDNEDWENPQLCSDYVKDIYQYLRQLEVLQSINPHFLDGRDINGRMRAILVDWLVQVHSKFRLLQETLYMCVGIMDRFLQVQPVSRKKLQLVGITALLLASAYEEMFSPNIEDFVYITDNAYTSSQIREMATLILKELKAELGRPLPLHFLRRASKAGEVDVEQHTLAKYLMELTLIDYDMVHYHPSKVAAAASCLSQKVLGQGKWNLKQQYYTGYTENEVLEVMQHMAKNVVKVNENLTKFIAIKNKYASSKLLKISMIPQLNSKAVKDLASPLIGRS
For `P1 R5H`, “normalised enrichment score” read -0.262 (CCNB1, cyclin fold, Cln2 fusion (human); yeast growth competition, sequencing; yeast; weak parent motif; reference: not given, higher = stronger binding).
With `PhoQ, residues 284 288 289 292 302 303 WVSSAF` the fold induction was 5.27 (PhoP, residues 12 14 15 18 19 GQAIL (Escherichia coli, UniProt P23836); Sort-seq, measured: YFP reporter; E. coli; PhoQ-PhoP variant library, with: 10 µM Mg2+; reference: high Mg2+ state, higher = stronger signaling).
For `P2 L12M`, “normalised enrichment score” read 5.8 (CCNA2; yeast growth competition, sequencing; yeast; strong parent motif; reference: not given, higher = stronger binding).
Under “normalised enrichment score”, `P3 F8R` is recorded as 0.588 (CCNA2; yeast growth competition, sequencing; yeast; strong parent motif; reference: not given, higher = stronger binding).
For `P4 F9I`, “normalised enrichment score” read 0.505 (CCNB2, cyclin fold, Cln2 fusion (human); yeast growth competition, sequencing; yeast; weak parent motif; reference: not given, higher = stronger binding).

A few entries again (single results of other studies):
Under “normalised enrichment score”, `P3 F8R` is recorded as 0.588 (CCNA2; yeast growth competition, sequencing; yeast; strong parent motif; reference: not given, higher = stronger binding).
For `P4 F9I`, “normalised enrichment score” read 0.505 (CCNB2, cyclin fold, Cln2 fusion (human); yeast growth competition, sequencing; yeast; weak parent motif; reference: not given, higher = stronger binding).
